{"data": "Measured values collected from several papers", "ache": "Acetylcholinesterase (ache, Electrophorus electricus, UniProt O42275)", "dcp2 with Dcp1": "mRNA decapping complex subunit 2, with Dcp1 (dcp2, Schizosaccharomyces pombe, UniProt O13828)", "note": "Protocols differ between the studies behind these lines. ± gives the spread as reported.", "chain of UniProt O42275 (whole entry, looked up)": "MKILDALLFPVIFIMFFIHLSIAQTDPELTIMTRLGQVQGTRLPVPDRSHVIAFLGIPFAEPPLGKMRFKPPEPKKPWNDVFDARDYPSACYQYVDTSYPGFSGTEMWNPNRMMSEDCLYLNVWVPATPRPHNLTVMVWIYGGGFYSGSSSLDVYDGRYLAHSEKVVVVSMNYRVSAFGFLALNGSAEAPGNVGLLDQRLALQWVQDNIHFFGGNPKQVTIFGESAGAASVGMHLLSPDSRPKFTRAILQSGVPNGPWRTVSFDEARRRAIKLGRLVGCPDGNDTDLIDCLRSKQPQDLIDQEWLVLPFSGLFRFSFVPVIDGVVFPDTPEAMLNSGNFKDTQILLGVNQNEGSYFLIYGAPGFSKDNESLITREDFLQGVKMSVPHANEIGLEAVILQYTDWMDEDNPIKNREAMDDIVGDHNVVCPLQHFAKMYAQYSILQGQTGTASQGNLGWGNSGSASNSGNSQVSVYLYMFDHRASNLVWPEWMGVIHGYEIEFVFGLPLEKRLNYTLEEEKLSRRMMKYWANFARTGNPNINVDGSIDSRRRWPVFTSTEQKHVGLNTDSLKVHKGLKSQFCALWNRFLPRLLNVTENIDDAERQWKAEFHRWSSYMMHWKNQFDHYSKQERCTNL", "chain of UniProt O13828 (whole entry, looked up)": "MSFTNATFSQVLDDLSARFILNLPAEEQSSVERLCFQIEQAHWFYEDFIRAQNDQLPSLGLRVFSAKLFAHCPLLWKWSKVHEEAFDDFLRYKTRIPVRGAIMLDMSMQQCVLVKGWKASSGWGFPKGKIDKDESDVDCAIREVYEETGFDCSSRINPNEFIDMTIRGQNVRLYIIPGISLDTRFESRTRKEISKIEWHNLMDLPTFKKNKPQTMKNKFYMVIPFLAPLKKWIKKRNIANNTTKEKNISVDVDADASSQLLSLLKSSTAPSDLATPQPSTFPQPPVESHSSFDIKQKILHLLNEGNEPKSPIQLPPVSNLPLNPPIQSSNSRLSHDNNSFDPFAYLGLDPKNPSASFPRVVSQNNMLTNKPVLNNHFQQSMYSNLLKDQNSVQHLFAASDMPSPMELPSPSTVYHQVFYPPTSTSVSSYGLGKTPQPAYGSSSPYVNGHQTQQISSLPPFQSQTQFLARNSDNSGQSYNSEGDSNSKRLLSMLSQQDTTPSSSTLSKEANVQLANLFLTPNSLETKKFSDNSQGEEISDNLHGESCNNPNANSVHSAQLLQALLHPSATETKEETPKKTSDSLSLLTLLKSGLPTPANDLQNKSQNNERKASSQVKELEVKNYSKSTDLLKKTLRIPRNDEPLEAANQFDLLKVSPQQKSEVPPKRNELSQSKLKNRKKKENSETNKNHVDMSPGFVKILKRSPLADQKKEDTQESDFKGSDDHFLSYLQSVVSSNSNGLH", "chain of UniProt Q32ZE1 (whole entry, looked up)": "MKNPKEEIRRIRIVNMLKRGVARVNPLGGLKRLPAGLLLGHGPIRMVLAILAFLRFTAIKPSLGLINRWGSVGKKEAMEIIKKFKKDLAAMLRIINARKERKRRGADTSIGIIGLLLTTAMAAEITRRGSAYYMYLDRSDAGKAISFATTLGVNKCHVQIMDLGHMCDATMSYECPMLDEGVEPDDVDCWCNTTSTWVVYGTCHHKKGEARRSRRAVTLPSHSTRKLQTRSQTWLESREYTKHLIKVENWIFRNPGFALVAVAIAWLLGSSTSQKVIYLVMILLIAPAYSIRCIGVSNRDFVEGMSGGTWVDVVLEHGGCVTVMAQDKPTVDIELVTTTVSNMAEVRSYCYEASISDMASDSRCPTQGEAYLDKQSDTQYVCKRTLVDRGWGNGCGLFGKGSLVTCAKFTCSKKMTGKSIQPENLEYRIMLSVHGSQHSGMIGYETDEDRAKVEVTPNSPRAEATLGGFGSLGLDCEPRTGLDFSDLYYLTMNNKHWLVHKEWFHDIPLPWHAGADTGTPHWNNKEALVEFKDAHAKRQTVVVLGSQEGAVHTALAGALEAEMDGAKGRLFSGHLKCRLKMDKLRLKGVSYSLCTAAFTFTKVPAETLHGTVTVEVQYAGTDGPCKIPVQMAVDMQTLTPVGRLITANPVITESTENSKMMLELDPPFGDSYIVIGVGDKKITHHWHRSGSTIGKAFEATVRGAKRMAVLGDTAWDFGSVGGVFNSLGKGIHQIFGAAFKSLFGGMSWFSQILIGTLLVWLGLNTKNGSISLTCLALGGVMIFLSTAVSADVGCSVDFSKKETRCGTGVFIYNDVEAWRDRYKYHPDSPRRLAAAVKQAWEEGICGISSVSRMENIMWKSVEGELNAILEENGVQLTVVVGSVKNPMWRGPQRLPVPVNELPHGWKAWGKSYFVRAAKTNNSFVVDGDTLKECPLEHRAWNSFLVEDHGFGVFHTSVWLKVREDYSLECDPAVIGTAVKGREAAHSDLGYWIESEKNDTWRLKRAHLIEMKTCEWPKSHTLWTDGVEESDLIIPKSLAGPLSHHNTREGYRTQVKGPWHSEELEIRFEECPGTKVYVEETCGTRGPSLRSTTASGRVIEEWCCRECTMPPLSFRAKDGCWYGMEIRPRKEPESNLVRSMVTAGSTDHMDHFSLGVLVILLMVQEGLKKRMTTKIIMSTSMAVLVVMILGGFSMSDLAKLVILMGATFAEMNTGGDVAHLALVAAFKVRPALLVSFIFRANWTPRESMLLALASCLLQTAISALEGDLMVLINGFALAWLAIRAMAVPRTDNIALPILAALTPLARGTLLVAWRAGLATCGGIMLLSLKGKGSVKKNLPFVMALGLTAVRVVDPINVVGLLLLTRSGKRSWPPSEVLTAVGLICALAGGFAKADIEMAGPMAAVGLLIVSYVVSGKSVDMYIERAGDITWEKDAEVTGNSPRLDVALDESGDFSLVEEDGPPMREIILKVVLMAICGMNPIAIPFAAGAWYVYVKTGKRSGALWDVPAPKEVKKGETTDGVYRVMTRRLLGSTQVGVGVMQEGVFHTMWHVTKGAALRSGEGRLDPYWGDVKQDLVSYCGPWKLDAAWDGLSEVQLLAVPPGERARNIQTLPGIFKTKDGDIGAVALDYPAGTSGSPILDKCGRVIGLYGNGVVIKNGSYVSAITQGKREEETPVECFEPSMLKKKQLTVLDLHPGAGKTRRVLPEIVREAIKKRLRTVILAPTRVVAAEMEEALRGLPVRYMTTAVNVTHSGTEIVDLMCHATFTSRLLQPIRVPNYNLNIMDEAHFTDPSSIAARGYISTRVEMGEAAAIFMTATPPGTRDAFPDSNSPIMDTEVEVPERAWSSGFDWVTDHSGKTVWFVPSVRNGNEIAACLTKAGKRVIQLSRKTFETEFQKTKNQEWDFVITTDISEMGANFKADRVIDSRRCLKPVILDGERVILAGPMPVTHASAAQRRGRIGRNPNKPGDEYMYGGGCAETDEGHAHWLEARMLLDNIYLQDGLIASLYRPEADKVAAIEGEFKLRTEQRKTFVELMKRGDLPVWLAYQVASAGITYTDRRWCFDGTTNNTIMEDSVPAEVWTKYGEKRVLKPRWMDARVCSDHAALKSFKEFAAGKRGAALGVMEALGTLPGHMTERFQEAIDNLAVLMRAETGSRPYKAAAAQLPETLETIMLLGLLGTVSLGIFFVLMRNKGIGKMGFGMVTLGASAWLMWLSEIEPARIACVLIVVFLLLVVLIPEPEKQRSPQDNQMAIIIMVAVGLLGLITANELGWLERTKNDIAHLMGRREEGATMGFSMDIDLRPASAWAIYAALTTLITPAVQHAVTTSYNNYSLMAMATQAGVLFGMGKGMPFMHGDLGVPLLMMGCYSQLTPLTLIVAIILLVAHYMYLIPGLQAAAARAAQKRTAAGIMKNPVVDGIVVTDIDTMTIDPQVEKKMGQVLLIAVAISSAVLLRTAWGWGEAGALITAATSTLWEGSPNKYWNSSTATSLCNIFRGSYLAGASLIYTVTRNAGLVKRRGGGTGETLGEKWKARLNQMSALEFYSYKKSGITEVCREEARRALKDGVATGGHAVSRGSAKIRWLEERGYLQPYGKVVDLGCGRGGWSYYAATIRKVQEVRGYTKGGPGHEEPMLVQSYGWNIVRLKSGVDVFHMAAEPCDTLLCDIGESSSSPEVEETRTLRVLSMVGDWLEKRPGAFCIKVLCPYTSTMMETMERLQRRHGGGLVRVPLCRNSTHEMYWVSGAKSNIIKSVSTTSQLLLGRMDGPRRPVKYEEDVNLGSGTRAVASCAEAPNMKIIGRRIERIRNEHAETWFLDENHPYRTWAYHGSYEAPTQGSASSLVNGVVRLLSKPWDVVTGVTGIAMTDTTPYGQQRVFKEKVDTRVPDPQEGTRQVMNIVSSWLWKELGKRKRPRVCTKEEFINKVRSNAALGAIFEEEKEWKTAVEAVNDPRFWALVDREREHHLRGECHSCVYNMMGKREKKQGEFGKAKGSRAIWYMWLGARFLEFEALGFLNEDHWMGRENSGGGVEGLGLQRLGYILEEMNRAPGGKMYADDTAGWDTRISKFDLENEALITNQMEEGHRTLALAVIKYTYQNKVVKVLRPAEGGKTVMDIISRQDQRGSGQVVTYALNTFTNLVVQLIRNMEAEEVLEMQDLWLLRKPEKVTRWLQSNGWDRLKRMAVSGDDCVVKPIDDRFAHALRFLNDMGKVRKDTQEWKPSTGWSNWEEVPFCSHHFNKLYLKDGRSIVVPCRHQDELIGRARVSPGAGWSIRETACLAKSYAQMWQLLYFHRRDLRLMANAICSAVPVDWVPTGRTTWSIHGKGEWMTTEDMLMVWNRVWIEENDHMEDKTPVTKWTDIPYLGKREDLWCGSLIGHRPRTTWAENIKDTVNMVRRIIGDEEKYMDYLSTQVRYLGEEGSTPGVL", "chain of UniProt Q01726 (whole entry, looked up)": "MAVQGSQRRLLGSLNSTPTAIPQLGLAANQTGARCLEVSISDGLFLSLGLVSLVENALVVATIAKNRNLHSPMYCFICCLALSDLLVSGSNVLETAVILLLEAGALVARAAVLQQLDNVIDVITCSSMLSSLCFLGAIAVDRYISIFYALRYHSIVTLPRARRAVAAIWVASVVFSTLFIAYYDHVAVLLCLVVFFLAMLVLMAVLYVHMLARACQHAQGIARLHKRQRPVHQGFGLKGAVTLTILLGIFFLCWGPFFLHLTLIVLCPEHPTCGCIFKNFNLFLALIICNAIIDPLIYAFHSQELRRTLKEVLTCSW"}
{"Structure (SMILES)": "CCc1nc2ccc(C(=O)NCCN3CCOCC3)cn2c1N(C)C(=O)C1CCCCC1", "target": "ache", "assay": "enzyme activity, inhibitor, Ellman", "setting": "5 µM", "inhibition": "68.7%"}
{"Structure (SMILES)": "C[C@H](NCc1ccc(-c2ccc(C(F)(F)F)cc2)cc1)C(N)=O", "target": "Amine oxidase [flavin-containing] B (MAOB, Homo sapiens, UniProt P27338)", "assay": "enzyme activity, inhibitor", "setting": "1 µM", "inhibition": "> 90%"}
{"Structure (SMILES)": "C[n+]1cn([C@@H]2O[C@H](COP(=O)([O-])NP(=O)(O)O)[C@@H](O)[C@H]2O)c2nc(N)nc(O)c21", "target": "dcp2 with Dcp1", "setting": "200 µM, 0.25 h", "inhibition": "16.6%"}
{"Structure (SMILES)": "CC(C)[C@H]1NC(=O)C[C@H]2/C=C/CCSSC[C@@H](NC1=O)C(=O)N[C@H](Cc1cccc3ccccc13)C(=O)NCC(=O)O2", "target": "Serine/threonine-protein kinase Nek4 (NEK4, Homo sapiens, UniProt P51957)", "assay": "enzyme activity, inhibitor", "setting": "10 µM", "inhibition": "-0.168%"}
{"Structure (SMILES)": "O=C1c2ccccc2CCCN1CCCCN1CCN(c2cccc(Cl)c2Cl)CC1", "target": "5-hydroxytryptamine receptor 4 (HTR4, Homo sapiens, UniProt Q13639)", "assay": "radioligand binding", "setting": "concentration not given", "inhibition": "11.2%"}
{"Structure (SMILES)": "O=C(CN1CN(c2ccccc2)C2(CCN(C(=O)c3cnc4[nH]ncc4c3)CC2)C1=O)NCC(F)(F)F", "target": "Interferon-induced, double-stranded RNA-activated protein kinase (EIF2AK2, Homo sapiens, UniProt P19525)", "assay": "inhibitor", "setting": "concentration not given", "inhibition": "< 50%"}
{"Structure (SMILES)": "C[n+]1cn([C@@H]2O[C@H](COP(=O)([O-])OP(=O)(O)O)[C@@H](O)[C@H]2O)c2nc(N)nc(O)c21", "target": "dcp2 with Dcp1", "setting": "200 µM, 0.5 h", "inhibition": "13.1 ± 6%"}
{"Structure (SMILES)": "Fc1ccccc1CN1CCNCC1", "target": "ache", "assay": "enzyme activity, inhibitor, Ellman", "setting": "20 µM", "inhibition": "38%"}
{"Structure (SMILES)": "C[n+]1cn([C@@H]2O[C@H](COP(=O)(O)CP(=O)([O-])OP(=O)(O)O)[C@@H](O)[C@H]2O)c2nc(N)nc(O)c21", "target": "dcp2 with Dcp1", "setting": "200 µM, 0.25 h", "inhibition": "8.3%"}
{"Structure (SMILES)": "CS(C)(=O)=Nc1ccc(-c2ccc(-c3nc4cc(O[C@@H]5CO[C@H]6[C@@H]5OC[C@H]6O)[nH]c4cc3F)cc2)cc1", "target": "Cathepsin D (CTSD, Homo sapiens, UniProt P07339)", "assay": "enzyme activity, inhibitor", "setting": "10 µM", "inhibition": "-6%"}
{"Structure (SMILES)": "Cc1cc(-c2ccc3ccccc3c2)nnc1NCCN1CCN(C)CC1", "target": "Solute carrier family 22 member 6 (SLC22A6, Homo sapiens, UniProt Q4U2R8)", "assay": "transport", "setting": "concentration not given", "inhibition": "negative"}
{"Structure (SMILES)": "N[C@H](C(=O)N1CCCC1)C1CCN(c2nccc3c(-c4ncc(Cl)cc4Cl)cccc23)CC1", "target": "muscle nicotinic acetylcholine receptor", "assay": "binding, radioligand binding", "setting": "10 µM", "inhibition": "-13%"}
{"Structure (SMILES)": "O=C(NC1CCN(c2ncnc3[nH]cnc23)CC1)c1cccc(NS(=O)(=O)c2ccc(C(F)(F)F)cc2)c1", "target": "Genome polyprotein, NS5 methyltransferase domain (Zika virus, UniProt Q32ZE1)", "assay": "NS5 enzyme activity, inhibitor", "setting": "12.5 µM", "inhibition": "-1.8%"}
{"Structure (SMILES)": "CN(C)[C@H]1C[C@@]23CC[C@@]4(O2)C(=CC[C@]2(C)[C@@H](c5ccc6ccncc6c5)CC[C@H]24)C=C3[C@@H](O)[C@@H]1O", "target": "STE20-related kinase adapter protein alpha (STRADA, Homo sapiens, UniProt Q7RTN6)", "assay": "ATP probe labelling, inhibitor, KiNativ profiling", "setting": "1 µM", "inhibition": "-1.9%"}
{"Structure (SMILES)": "CC(C)N", "target": "ache", "assay": "enzyme activity, inhibitor, Ellman", "setting": "20 µM", "inhibition": "49.8%"}
{"Structure (SMILES)": "CC(=O)NC[C@@H]1[C@@H](O)C[C@H]2[C@H](O)C[C@@H](CO)N12", "target": "human placental β-N-acetylglucosaminidase", "setting": "0.171 µM, run 1, added: p-nitrophenyl GlcNAc", "inhibition": "71.4%"}
{"Structure (SMILES)": "O=C(Nc1cccnc1)c1cccc(C2(CNCc3ccc(F)c(F)c3)CC2)c1", "target": "ache", "assay": "enzyme activity, inhibitor, Ellman", "setting": "5 µM", "inhibition": "59.9%"}
{"Structure (SMILES)": "CN(/N=C/c1ccccc1C(=O)O)c1nc(-c2ccccc2Cl)cs1", "target": "Tyrosine-protein kinase JAK1 (JAK1, Homo sapiens, UniProt P23458)", "assay": "enzyme activity, inhibitor", "setting": "1 µM", "inhibition": "-18.3%"}
{"Structure (SMILES)": "Cc1ccc2c(n1)c(-c1cccc(S(C)(=O)=O)c1)c(C)n2C/C(F)=C/CN", "target": "Melanocyte-stimulating hormone receptor (MC1R, Homo sapiens, UniProt Q01726)", "assay": "ligand displacement, radioligand", "setting": "10 µM", "inhibition": "-3%"}
{"Structure (SMILES)": "O=S(=O)(F)CCc1cn(Cc2ccccc2F)nn1", "target": "ache", "assay": "Ellman", "setting": "20 µM", "inhibition": "37 ± 2.8%"}
{"Structure (SMILES)": "C[Si](C)(C)C#N", "target": "Retinal rod rhodopsin-sensitive cGMP 3',5'-cyclic phosphodiesterase subunit delta (PDE6D, Homo sapiens, UniProt O43924)", "assay": "enzyme activity, inhibitor", "setting": "5 µM", "inhibition": "21.3%"}
{"Structure (SMILES)": "CN[C@@H]1[C@H](O)[C@H](NC)[C@H]2O[C@]3(O)[C@H](O[C@@H]2[C@H]1O)O[C@H](C)C[C@H]3NC(=O)Cc1ccc(Cl)cn1", "target": "Melatonin receptor type 1A (MTNR1A, Homo sapiens, UniProt P48039)", "assay": "ligand displacement, radioligand", "setting": "10 µM", "inhibition": "9%"}
{"Structure (SMILES)": "NCc1ccncc1", "target": "ache", "assay": "enzyme activity, inhibitor, Ellman", "setting": "20 µM", "inhibition": "31.2%"}
{"Structure (SMILES)": "COc1ccc(F)cc1S(=O)(=O)Nc1cnc2c(c1)C(=O)NCCO2", "target": "Gamma-aminobutyric acid type B receptor subunit 1 (GABBR1, Homo sapiens, UniProt Q9UBS5)", "assay": "radioligand binding, inhibitor", "setting": "10 µM", "inhibition": "7%"}
{"note": "Excerpt of the above:"}
{"Structure (SMILES)": "CN[C@@H]1[C@H](O)[C@H](NC)[C@H]2O[C@]3(O)[C@H](O[C@@H]2[C@H]1O)O[C@H](C)C[C@H]3NC(=O)Cc1ccc(Cl)cn1", "target": "Melatonin receptor type 1A (MTNR1A, Homo sapiens, UniProt P48039)", "assay": "ligand displacement, radioligand", "setting": "10 µM", "inhibition": "9%"}
{"Structure (SMILES)": "O=C(NC1CCN(c2ncnc3[nH]cnc23)CC1)c1cccc(NS(=O)(=O)c2ccc(C(F)(F)F)cc2)c1", "target": "Genome polyprotein, NS5 methyltransferase domain (Zika virus, UniProt Q32ZE1)", "assay": "NS5 enzyme activity, inhibitor", "setting": "12.5 µM", "inhibition": "-1.8%"}
{"Structure (SMILES)": "O=C1c2ccccc2CCCN1CCCCN1CCN(c2cccc(Cl)c2Cl)CC1", "target": "5-hydroxytryptamine receptor 4 (HTR4, Homo sapiens, UniProt Q13639)", "assay": "radioligand binding", "setting": "concentration not given", "inhibition": "11.2%"}
